Published values of several laboratories.
Each numbered part is a random draw from the data of one study; scales do not carry over between parts.
UniProt O75460, sequence (whole entry, looked up): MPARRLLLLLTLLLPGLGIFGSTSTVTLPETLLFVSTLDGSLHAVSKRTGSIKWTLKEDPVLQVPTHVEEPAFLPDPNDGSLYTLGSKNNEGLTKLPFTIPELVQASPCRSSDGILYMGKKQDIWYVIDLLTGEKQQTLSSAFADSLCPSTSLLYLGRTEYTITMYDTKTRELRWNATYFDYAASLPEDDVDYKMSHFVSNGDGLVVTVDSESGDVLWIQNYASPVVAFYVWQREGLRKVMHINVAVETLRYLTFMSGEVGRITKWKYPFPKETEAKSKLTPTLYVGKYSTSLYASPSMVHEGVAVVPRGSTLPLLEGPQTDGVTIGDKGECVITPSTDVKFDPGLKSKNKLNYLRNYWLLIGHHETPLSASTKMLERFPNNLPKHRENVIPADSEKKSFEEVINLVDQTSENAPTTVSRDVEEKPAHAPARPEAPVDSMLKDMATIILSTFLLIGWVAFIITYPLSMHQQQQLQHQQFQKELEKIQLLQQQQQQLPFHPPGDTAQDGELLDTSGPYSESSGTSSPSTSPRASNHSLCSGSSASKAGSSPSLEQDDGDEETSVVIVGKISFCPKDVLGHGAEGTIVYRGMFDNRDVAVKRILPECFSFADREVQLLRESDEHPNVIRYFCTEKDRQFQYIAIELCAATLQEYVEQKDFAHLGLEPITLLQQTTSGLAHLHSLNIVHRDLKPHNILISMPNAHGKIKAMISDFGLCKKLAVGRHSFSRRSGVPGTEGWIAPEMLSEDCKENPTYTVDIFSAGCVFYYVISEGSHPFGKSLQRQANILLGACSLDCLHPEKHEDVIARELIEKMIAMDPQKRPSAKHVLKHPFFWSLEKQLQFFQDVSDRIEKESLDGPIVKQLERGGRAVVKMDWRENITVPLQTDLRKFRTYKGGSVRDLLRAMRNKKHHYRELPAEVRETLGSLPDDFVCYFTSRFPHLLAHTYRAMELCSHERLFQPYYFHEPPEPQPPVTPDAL
UniProt Q9NYY3, sequence (whole entry, looked up): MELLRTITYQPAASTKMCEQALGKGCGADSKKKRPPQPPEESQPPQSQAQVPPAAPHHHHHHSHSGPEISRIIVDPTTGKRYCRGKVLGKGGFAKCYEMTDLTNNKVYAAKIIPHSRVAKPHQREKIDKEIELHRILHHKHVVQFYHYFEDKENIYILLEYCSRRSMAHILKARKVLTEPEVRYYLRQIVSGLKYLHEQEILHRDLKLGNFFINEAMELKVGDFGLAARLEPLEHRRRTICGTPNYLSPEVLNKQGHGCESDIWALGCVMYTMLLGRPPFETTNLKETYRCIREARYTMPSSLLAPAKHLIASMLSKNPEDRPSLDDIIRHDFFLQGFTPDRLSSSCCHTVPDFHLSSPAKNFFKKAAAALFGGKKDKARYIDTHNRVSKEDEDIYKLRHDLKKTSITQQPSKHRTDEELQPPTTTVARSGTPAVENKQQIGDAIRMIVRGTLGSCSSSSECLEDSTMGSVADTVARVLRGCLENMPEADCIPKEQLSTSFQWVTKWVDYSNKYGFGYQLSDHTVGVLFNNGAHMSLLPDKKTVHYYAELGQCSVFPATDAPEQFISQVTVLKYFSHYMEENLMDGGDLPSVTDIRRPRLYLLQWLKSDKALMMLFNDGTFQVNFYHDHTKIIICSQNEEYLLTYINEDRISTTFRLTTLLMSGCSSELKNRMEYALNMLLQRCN
UniProt P0C264, sequence (whole entry, looked up): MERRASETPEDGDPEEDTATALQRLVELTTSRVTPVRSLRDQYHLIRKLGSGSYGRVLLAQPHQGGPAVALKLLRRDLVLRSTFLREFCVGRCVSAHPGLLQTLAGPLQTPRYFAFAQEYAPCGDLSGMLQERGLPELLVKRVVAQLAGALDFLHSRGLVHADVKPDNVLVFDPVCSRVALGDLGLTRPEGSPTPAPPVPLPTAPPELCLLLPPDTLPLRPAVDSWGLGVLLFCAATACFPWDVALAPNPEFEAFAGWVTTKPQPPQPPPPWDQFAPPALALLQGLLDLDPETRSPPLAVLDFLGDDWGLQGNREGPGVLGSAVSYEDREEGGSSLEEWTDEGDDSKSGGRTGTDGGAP
UniProt Q99558, sequence (whole entry, looked up): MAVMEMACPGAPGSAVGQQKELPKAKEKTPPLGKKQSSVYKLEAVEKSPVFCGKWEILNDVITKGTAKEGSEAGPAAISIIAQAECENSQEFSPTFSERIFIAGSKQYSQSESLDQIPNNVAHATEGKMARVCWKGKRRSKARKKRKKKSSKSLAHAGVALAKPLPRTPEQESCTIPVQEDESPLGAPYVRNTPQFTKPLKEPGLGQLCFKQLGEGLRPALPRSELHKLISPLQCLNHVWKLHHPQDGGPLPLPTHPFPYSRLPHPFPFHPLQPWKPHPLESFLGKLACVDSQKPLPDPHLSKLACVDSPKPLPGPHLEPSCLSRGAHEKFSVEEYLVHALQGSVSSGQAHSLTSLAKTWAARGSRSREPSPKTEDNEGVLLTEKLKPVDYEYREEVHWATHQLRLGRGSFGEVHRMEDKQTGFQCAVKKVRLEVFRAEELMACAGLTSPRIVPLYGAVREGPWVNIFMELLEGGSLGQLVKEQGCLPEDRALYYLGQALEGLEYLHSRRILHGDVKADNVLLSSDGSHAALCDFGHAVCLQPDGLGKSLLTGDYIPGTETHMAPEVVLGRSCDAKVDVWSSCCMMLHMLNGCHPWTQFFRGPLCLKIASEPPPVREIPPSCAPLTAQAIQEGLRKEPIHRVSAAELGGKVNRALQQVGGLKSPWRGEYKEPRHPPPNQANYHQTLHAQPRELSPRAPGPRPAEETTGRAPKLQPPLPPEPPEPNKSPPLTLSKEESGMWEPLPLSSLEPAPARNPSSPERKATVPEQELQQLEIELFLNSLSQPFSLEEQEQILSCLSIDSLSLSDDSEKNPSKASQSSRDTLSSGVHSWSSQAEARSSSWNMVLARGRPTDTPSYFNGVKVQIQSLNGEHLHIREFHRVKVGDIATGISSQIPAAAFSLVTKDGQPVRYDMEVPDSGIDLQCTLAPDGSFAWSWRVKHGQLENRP
UniProt Q13546, sequence (whole entry, looked up): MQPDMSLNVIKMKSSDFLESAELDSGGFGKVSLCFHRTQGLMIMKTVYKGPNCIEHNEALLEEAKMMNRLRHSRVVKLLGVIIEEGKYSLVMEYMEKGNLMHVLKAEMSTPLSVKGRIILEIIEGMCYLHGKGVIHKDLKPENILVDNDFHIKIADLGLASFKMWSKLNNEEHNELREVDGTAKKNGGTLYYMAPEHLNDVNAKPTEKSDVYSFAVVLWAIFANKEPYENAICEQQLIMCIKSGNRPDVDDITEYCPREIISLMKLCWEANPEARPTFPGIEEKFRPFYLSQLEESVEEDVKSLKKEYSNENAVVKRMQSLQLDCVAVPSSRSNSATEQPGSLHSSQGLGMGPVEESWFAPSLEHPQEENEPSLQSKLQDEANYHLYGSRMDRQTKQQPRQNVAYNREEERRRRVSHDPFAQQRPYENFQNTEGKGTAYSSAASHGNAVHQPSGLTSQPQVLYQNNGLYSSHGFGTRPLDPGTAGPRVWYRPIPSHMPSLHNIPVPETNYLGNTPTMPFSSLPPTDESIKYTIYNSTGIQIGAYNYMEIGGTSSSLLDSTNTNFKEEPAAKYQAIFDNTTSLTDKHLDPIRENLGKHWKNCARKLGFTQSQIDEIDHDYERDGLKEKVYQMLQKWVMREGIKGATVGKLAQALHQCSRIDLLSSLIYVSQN
UniProt P23443, sequence (whole entry, looked up): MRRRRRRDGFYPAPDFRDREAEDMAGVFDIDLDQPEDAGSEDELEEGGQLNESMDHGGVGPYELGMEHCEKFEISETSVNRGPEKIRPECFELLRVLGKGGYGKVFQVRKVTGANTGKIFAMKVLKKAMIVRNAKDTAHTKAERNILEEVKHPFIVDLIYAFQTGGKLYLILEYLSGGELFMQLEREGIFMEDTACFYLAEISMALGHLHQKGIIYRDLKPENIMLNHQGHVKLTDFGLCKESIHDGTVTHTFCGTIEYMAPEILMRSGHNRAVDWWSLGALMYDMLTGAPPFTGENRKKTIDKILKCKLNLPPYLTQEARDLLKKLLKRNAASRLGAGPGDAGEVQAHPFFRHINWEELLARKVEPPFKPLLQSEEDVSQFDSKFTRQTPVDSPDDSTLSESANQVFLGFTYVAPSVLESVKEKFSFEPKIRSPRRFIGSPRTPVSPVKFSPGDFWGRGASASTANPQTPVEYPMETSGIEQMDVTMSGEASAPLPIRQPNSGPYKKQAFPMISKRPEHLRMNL

Study 1
Host: human
Matrix: microsomes or S9
Tested at: 2 µM
Time: 0.5 h
Quantity: remaining compound
CC1CCC(NS(=O)(=O)CC(=O)NC(C)CCc2ccc(Br)cc2)CC1 (centres unmarked): 6.51%
CC(NCc1csc(Br)c1)c1cc2ccccc2o1 (centres unmarked): 1.3%
CCOc1ccccc1NC(=O)NC1(C(=O)O)CCCCC1: 53.7%
COCCn1cc2c3c(cccc31)CN(C(=O)Nc1ccccc1C(F)(F)F)CC2: 4.45%
Cc1cc(C)c(NC(=O)NCc2ccc3nnn(C4CCC(=O)NC4=O)c(=O)c3c2)c(Br)c1 (centres unmarked): 33.5%
O=C1CCC2=C1C(c1ccccc1)Nc1ccccc1N2 (centres unmarked): 86.6%
COC(=O)c1cccc2c1CN(c1cccc(C(=O)OC(C)(C)C)c1)C2=O: > 99%
COc1c(Br)ccc2c1sc1ncnc(NC(C)C(=O)O)c12 (centres unmarked): 39.9%
O=C(NCc1ccncc1)c1cc(-c2ccc(Br)s2)n[nH]1: 96.3%

Study 2
Compound: NS(=O)(=O)c1cc(NC(=O)Cc2ccccc2)ccc1Oc1cccc(Cl)c1
Effect on: cell-free assay
Method: competition with immobilised ligand
Tested at: 1 µM
Quantity: remaining binding
PKN1 (Homo sapiens, UniProt Q16512): 100%
PLK2 (Homo sapiens, UniProt Q9NYY3): 73%
RIPK1 (Homo sapiens, UniProt Q13546): 81%
MAP3K14 (Homo sapiens, UniProt Q99558): 67%
STK4 (Homo sapiens, UniProt Q13043): 86%
Ribosomal protein S6 kinase alpha-4, C-terminal kinase domain (RPS6KA4, Homo sapiens, UniProt O75676): 90%
SBK3 (Homo sapiens, UniProt P0C264): 100%
Tyrosine-protein kinase ABL1, phosphorylated (ABL1, Homo sapiens, UniProt P00519, Q252H): 55%

Study 3
SMILES: COc1ccc2[nH]c3c4[nH]c5ccc(OC)cc5c4c4c(c3c2c1)C(=O)NC4=O
Tested at: 1 µM
Quantity: remaining binding
TLK2 (Homo sapiens, UniProt Q86UE8); competitive binding panel; baseline: vehicle: 95%
PRKX (Homo sapiens, UniProt P51817); competitive binding panel; baseline: vehicle: 23%
PIP4K2C (Homo sapiens, UniProt Q8TBX8); competitive binding panel, measured: PIP5K2C; baseline: vehicle: 28%
RPS6KB1 (Homo sapiens, UniProt P23443); competitive binding; S6K1: 21%
PIP4K2B (Homo sapiens, UniProt P78356); competitive binding panel, measured: PIP5K2B; baseline: vehicle: 100%
FGFR3 (Homo sapiens, UniProt P22607, G697C); competitive binding panel; baseline: vehicle: 100%
ERN1 (Homo sapiens, UniProt O75460); competitive binding panel; baseline: vehicle: 93%
SRPK3 (Homo sapiens, UniProt Q9UPE1); competitive binding panel; baseline: vehicle: 100%

Study 4
Target: cGMP-dependent protein kinase 1, isoform beta (PRKG1, Homo sapiens, UniProt Q13976)
UniProt Q13976, sequence (whole entry, looked up): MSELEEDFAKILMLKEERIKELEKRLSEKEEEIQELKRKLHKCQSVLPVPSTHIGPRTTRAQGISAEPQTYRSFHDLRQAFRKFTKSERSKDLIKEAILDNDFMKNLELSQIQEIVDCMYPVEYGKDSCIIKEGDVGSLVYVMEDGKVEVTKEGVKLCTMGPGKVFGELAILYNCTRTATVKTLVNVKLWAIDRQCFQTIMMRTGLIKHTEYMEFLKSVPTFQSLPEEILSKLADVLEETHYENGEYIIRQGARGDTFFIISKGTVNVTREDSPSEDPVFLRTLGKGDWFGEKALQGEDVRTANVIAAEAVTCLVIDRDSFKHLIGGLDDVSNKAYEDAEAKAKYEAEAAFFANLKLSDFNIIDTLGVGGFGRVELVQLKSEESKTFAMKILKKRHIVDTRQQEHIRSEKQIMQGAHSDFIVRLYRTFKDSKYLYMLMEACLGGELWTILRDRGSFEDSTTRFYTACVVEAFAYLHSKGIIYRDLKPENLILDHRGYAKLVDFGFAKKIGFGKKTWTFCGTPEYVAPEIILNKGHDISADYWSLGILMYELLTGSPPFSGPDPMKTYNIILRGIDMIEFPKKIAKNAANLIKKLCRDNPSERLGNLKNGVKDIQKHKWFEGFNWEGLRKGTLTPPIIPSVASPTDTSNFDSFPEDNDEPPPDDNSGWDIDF
Effect on: enzyme activity
Action: inhibitor
Tested at: 0.5 µM
Baseline: control
Quantity: remaining activity
O=C(O)c1ccc2c3c1cccc3c(=O)n1c3ccccc3nc21: 95.1%
Cn1sc(=O)n(Cc2ccccc2)c1=O: 93.2%
N#CCCc1ccc2c(c1)-c1[nH]c3ccc([N+](=O)[O-])cc3c1CC(=O)N2: 88.4%
O=C(Nc1cccc(Nc2cc(Nc3cccc(C(F)(F)F)c3)ncn2)c1)C1CC1: 90.6%
COc1cc2ncnc(Nc3ccc(Oc4ccccc4)cc3)c2cc1OC: 93.6%
COc1ccc(OC)c2c(=S)c3ccccc3[nH]c12: 94.4%
OCC(O)CCON=C1C(c2c(O)[nH]c3ccccc23)=Nc2ccccc21 (centres unmarked): 53%
Nc1ccc2ncnc(NCCc3ccc(Oc4ccccc4)cc3)c2c1: 94.5%
C#Cc1cccc(Nc2ncnc3cc(OCCOC)c(OCCOC)cc23)c1: 93.5%
Cc1cccc(-c2[nH]c(C(C)(C)C)nc2-c2ccc3c(c2)OCO3)n1: 91%
CN(C)c1ccc(C=C2C(=O)Nc3ccccc32)cc1: 86.9%
O=C(CCCc1ccc(-c2ccccc2F)cc1)Nc1ccc(O)cc1: 99.9%
O=C1NC(=O)C(c2cn(CCCO)c3ncccc23)=C1c1cnccn1: 78.8%
Cn1c2ccccc2c2c3c(c4c5ccccc5n(CCC#N)c4c21)CNC3=O: 84.3%
COc1ccc(C(=O)Nc2sc3c(c2C(N)=O)CCCC3)cc1OC: 87.5%
Cc1ccc(Nc2nccc(N(C)c3ccc4c(C)n(C)nc4c3)n2)cc1S(N)(=O)=O: 103%

Repeated from above (study 4):
OCC(O)CCON=C1C(c2c(O)[nH]c3ccccc23)=Nc2ccccc21 (centres unmarked): 53%
Nc1ccc2ncnc(NCCc3ccc(Oc4ccccc4)cc3)c2c1: 94.5%
C#Cc1cccc(Nc2ncnc3cc(OCCOC)c(OCCOC)cc23)c1: 93.5%
